Measurements of several laboratories.
A part holds a random share of what one study measured. Changes are numbered by the printed parent chain.
Sequence of UniProt Q08881 (whole entry, looked up): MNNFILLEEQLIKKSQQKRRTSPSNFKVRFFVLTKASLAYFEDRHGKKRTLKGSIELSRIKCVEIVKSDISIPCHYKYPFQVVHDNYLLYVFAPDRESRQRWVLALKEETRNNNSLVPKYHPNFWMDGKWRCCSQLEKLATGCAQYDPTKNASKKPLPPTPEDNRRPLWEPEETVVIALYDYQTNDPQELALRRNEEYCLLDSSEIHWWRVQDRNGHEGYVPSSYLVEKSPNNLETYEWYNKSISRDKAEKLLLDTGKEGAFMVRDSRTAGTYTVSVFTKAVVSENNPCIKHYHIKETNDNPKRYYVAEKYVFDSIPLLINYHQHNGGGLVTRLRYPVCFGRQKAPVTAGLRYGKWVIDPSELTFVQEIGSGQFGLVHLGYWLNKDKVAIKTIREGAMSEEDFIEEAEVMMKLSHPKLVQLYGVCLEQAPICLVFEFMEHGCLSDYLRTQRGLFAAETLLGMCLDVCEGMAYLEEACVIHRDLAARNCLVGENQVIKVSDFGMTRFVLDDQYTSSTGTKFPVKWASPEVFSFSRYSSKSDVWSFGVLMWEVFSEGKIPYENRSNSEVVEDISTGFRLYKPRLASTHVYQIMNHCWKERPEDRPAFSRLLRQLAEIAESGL
Sequence of UniProt Q8WTQ7 (whole entry, looked up): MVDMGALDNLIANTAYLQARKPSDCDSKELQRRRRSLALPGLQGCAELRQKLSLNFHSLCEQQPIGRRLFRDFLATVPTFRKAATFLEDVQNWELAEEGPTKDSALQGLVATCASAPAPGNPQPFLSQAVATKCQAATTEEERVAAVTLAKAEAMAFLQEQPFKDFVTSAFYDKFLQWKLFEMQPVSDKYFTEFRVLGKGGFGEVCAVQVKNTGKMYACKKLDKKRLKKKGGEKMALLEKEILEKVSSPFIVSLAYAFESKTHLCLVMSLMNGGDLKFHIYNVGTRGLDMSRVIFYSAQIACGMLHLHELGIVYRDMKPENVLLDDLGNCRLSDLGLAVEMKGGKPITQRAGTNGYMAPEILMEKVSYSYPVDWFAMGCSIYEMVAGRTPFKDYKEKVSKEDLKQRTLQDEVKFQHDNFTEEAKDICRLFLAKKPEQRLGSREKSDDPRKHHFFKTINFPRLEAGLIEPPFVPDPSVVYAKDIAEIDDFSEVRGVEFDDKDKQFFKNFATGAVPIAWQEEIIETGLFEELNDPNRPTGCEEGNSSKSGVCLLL
Sequence of UniProt O14936 (whole entry, looked up): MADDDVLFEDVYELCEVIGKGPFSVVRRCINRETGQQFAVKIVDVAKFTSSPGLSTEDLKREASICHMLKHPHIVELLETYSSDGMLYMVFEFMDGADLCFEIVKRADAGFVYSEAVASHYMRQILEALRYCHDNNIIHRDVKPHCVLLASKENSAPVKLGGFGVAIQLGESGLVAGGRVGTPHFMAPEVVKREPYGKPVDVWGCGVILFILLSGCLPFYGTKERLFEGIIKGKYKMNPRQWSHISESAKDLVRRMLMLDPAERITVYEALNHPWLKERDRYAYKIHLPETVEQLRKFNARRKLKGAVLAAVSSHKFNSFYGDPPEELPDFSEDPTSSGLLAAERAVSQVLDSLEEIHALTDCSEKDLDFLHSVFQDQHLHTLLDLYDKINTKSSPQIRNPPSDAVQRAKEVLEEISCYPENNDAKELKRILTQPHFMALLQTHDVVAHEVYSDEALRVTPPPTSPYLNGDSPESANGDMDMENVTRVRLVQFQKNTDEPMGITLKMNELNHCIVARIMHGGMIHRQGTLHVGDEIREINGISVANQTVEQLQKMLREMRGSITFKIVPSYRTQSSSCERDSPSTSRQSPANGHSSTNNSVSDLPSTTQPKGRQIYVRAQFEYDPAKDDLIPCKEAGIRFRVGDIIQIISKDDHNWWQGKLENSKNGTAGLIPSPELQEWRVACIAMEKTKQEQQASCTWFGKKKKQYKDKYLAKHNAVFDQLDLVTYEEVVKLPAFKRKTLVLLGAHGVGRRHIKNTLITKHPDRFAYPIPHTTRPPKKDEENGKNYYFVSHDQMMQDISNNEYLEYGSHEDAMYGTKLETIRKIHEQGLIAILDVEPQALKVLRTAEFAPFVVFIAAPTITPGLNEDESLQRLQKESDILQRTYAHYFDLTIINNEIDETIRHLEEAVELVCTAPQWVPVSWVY
Sequence of UniProt Q9Y2H9 (whole entry, looked up): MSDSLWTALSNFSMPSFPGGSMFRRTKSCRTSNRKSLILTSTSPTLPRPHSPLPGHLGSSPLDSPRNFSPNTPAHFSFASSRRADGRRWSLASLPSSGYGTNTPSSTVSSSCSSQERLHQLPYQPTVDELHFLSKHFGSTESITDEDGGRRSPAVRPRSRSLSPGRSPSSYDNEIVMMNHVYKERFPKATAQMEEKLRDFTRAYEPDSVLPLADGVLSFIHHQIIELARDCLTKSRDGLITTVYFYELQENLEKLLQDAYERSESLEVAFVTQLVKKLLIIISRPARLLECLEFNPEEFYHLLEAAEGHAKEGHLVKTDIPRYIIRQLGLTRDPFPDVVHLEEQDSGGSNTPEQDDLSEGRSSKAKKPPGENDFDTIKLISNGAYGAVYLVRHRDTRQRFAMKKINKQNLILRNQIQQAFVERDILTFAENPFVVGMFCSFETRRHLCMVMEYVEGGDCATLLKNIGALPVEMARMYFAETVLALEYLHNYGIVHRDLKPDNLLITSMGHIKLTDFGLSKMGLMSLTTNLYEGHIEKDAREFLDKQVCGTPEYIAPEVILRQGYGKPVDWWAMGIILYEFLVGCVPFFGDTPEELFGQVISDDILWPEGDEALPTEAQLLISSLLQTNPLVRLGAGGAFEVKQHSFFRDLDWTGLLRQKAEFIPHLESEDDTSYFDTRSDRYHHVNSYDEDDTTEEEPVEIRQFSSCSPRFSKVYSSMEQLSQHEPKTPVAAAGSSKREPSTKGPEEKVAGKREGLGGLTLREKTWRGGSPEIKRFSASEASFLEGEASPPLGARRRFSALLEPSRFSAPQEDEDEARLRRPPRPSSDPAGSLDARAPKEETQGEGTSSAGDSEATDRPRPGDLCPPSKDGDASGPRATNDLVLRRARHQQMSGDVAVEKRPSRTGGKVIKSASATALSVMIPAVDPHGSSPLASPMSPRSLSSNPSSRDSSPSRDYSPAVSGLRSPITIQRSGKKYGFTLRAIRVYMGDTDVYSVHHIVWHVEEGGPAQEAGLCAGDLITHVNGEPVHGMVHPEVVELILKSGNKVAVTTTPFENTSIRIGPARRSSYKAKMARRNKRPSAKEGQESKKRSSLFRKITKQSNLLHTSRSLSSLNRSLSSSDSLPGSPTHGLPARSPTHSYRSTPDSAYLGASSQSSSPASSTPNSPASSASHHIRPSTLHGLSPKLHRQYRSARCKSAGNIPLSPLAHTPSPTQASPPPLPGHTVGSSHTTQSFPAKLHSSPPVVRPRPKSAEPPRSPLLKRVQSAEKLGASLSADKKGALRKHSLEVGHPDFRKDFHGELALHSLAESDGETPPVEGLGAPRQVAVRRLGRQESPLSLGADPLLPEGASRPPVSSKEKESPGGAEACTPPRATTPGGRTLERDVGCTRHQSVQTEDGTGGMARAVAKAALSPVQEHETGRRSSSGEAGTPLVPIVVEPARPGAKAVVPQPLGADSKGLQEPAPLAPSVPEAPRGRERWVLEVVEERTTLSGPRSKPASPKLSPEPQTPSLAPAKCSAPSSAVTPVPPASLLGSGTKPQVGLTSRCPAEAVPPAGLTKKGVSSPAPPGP

Set 1 — read-out: cell-free assay; method: competition with immobilised ligand; concentration: 1 µM
Compound: CN(c1ccnc(CNc2nc(Nc3ccc4c(c3)CC(=O)N4)ncc2C(F)(F)F)n1)S(C)(=O)=O
target | remaining binding [%]
MAST1 (Homo sapiens, UniProt Q9Y2H9) | 69
ITK (Homo sapiens, UniProt Q08881) | 93
Tyrosine-protein kinase ABL1, non-phosphorylated (ABL1, Homo sapiens, UniProt P00519, Q252H) | 94
CASK (Homo sapiens, UniProt O14936) | 85
GRK7 (Homo sapiens, UniProt Q8WTQ7) | 29

Set 2 — target: BATF3, bZIP domain (human); method: DHFR protein complementation; medium: yeast; reference: wild-type JUN-FOS pair; direction: higher = stronger binding
Notes: single substitutions, most at no-binding floor
Parent: JUN, bZIP domain (human); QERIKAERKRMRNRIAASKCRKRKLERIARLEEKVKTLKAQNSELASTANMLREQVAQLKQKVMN; partner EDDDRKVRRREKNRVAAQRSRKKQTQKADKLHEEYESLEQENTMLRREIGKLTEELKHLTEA
Substitution | binding fitness [natural log]
A49E | 0.108
A57M | 0.157
N42L | -0.454
Q41L | 0.109
T48R | 0.226
L45Q | -0.25
V56N | -0.21
E32S | 0.18

Set 3 — method: RNAcompete; form: RNA; medium: in vitro; concentration: 20 nM; notes: 7-mer, probes averaged, single round; reference: mean of 7-mers; direction: higher = stronger binding
Target: PABPC1L2, full length, GST fusion (mouse, UniProt A0ABA7IW68)
Residues (chain): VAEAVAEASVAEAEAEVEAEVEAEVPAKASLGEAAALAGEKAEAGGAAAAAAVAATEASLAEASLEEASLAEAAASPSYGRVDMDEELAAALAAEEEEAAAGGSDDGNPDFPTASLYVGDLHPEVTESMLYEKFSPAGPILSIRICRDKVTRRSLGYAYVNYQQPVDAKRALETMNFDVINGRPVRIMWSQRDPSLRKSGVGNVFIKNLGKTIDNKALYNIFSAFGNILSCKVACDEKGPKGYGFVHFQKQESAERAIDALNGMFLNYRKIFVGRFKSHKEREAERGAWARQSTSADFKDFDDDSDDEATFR
Sequence | 7-mer Z-score
UUAACGC | -0.121
CGUGCUA | -0.0718
CAGUAAA | 0.996
AACAAAA | 6.46
GCCUGGU | -0.293
GAUUUUU | -0.242
UAAAGGG | 0.932
GGUCGCG | -0.162

Set 4 — read-out: enzyme activity; mode: inhibitor; concentration: 0.5 µM; reference: control
Target: Dual specificity protein kinase CLK1 (CLK1, Homo sapiens, UniProt P49759)
Sequence of UniProt P49759 (whole entry, looked up): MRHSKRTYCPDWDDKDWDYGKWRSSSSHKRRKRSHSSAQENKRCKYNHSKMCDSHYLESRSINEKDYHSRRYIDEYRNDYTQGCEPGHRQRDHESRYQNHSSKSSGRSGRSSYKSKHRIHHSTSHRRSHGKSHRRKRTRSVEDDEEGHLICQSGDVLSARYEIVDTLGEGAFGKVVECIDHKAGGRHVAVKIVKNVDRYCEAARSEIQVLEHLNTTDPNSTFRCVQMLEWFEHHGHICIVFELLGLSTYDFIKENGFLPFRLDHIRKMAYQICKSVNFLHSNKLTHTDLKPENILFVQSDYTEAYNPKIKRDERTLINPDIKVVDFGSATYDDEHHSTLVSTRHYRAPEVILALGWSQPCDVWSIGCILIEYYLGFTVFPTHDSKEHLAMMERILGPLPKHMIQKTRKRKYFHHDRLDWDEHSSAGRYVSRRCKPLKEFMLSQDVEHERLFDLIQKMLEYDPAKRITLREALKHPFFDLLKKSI
Structure (SMILES) | remaining activity [%]
CN(C)c1ccc(C=C2C(=O)Nc3ccccc32)cc1 | 103
Nc1[nH]nc2nc3ccccc3nc12 | 99.2
Cc1ccc(Nc2nccc(N(C)c3ccc4c(C)n(C)nc4c3)n2)cc1S(N)(=O)=O | 103
O=C(CCCc1ccc(-c2ccccc2F)cc1)Nc1ccc(O)cc1 | 101
O=c1c2ccccc2[nH]c(=S)n1CCN1CCC(=C(c2ccc(F)cc2)c2ccc(F)cc2)CC1 | 113
CC(C)[C@H](CO)Nc1nc(Nc2cc(N)cc(Cl)c2)c2ncn(C(C)C)c2n1 | 51.9
COc1ccc(C(=O)Nc2sc3c(c2C(N)=O)CCCC3)cc1OC | 96.9
O=C(O)c1ccc2c3c1cccc3c(=O)n1c3ccccc3nc21 | 93.8
COc1cc2ncnc(Nc3ccc(Oc4ccccc4)cc3)c2cc1OC | 100
COc1cc2ncnc(Nc3ccc(F)c(Cl)c3)c2cc1OCCCN1CCOCC1 | 105
Nc1ccc2ncnc(NCCc3ccc(Oc4ccccc4)cc3)c2c1 | 101
NCCNc1ncc(C(N)=O)c(Nc2cccc(C(F)(F)F)c2)n1 | 112
O=C1NC(=O)C(c2cn(CCCO)c3ncccc23)=C1c1cnccn1 | 88.5
Cn1c2ccccc2c2c3c(c4c5ccccc5n(CCC#N)c4c21)CNC3=O | 69.9

For quick reference, copied from above (set 1):
target | remaining binding [%]
MAST1 (Homo sapiens, UniProt Q9Y2H9) | 69
CASK (Homo sapiens, UniProt O14936) | 85
GRK7 (Homo sapiens, UniProt Q8WTQ7) | 29
ITK (Homo sapiens, UniProt Q08881) | 93
